Experimental data of several laboratories.
Numbered parts are unrelated; each lists some results of a single study. Substitutions count along the parent as printed.

Sample 1 — technique: protein-binding microarray; form: double-stranded DNA, one strand shown; sample: in vitro; tested at: 250 nM; notes: 60-bp whole probe; added: salmon DNA 0.4 mg/ml; reference: random background probes; direction: higher = stronger binding; shared flanks, not repeated: GCCTAGCAC … GTCTTGATTCGCTTGACGCTGCTG
Target: Interferon regulatory factor 5, full length, phosphomimetic (IRF5, Homo sapiens, UniProt Q13568-2, residues 1-514, K96S/S451D/S453D/S456D/S462D)
`CCCTTTTCATGCTCTTATATAGTGCTA` has a log fluorescence of 0.9 z-score.
With `GACGGACTGGGCTTTCGGGACGTGCTA` the log fluorescence was 1.22 z-score.
`GACGAACTGAGTATCGTGACGTGCTAG` gave a log fluorescence of 0.433 z-score.
For `GACGATATGAGACTGGAGACGTGCTAG`, the log fluorescence was 0.374 z-score.
The log fluorescence of `TTAGAACTGGGGTTTCGACTAGTGCTA` is reported as 2.64 z-score.
For `TTAGGTCGCGGTTTCGGTTAGTGCTAG`, the log fluorescence was 7.8 z-score.
The log fluorescence of `CCTAGTTTTACTTTCTATCTGTGCTAG` is reported as 5.38 z-score.
`TCATATTTACTCTCTACAACTGTGCTA` has a log fluorescence of 1.17 z-score.
`TCACTCCTCTCTCTTTCACTGTGCTAG` gave a log fluorescence of 1.79 z-score.
For `TCAATTATCCTTGTCCCACTGTGCTAG`, the log fluorescence was 0.0273 z-score.
`TTAGGTGTCGACTTTCGGTTAGTGCTA` gave a log fluorescence of 9.38 z-score.

Sample 2 — target: CCNB3, cyclin fold, Cln2 fusion (human); technique: yeast growth competition, sequencing; sample: yeast; notes: weak parent motif; reference: not given; direction: higher = stronger binding
Starting sequence: PKN2 docking peptide (human); VSAVQKLDFSDTM; partner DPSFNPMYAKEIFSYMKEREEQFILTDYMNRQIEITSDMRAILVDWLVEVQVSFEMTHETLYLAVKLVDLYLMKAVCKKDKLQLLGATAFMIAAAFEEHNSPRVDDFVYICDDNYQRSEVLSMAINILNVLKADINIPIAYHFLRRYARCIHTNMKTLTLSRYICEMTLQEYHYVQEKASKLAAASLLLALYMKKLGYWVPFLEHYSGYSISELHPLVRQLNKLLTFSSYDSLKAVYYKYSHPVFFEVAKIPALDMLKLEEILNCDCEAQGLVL
For `VSAVQKLGFSDTM [D8G]`, “normalised enrichment score” read 0.159.
Under “normalised enrichment score”, `VSAVQKLDMSDTM [F9M]` is recorded as -0.0197.
For `VSAVQKRDFSDTM [L7R]`, “normalised enrichment score” read 0.101.
`VSAVQKLLFSDTM [D8L]` — result for “normalised enrichment score”: 0.379.
Under “normalised enrichment score”, `NSAVQKLDFSDTM [V1N]` is recorded as 0.347.
`VGAVQKLDFSDTM [S2G]` — result for “normalised enrichment score”: 0.1.
For `VSYVQKLDFSDTM [A3Y]`, “normalised enrichment score” read 0.41.
Under “normalised enrichment score”, `VSAFQKLDFSDTM [V4F]` is recorded as 0.427.
For `VSAVQKWDFSDTM [L7W]`, “normalised enrichment score” read 0.341.

Sample 3 — technique: RNA Bind-n-Seq; form: RNA; sample: in vitro; tested at: 365 nM; reference: no-protein control; direction: higher = stronger binding
Target: RNA binding protein fox-1 homolog 2, RRM domain, GST-SBP tag (RBFOX2, Homo sapiens, UniProt O43251-10, residues 100-194)
Notes: natural RNA segment, single round, ends assumed
Shared flanks, not repeated: GGGAGUUCUACAGUCCGACGAUC … UGGAAUUCUCGGGUGCCAA
`CCCGCUGAGCUUCCCUUGGACACUAACUCUUCCCAGAUGAUGACAAUGAAAUUAGUGCCUGUUUUCUUGCAAAUUUAGCACUUGGAACAUUUAAAGAAAGGUCUAUGCUG`: “RBNS enrichment (R)” 0.444.
Under “RBNS enrichment (R)”, `ACUGUGUCCUUGGUGUUGGUUCUGAUUAAGACUCACUGAGAUCCAGUGCUCUUGAGCUGGGUCUCAGUCCCCUCCCAUGUCCUGUGCUCUGCCGCCACUGUUUUCAUUGU` is recorded as 0.482.
For `AAGGGAAGCCACCUUCCAAGAACUGGAACAUGUGCAUCUUUUGUGCCACCUUGUACAAAGCCAGCUGACCAGCCCCCGCCUCCUCACCACACCCCAGCUCCUAUCUUCUG`, “RBNS enrichment (R)” read 0.811.
Under “RBNS enrichment (R)”, `AAUACAUGCACACCAGAAAGGCAUUUCCACCACCGUCCCCACUCAUUAGCGUCCAGAGUGCCUUUCUCUCUCGGCUUUUUUUCCCCCCUGAGCUCUAGUUUUAAACUUUC` is recorded as 1.39.
For `GUAGAAAAAUCUUCCUGGCACUUGGUGUUUCUAUGUUAUUGAAAAAUGAUGUUCCAGAAAGAUUACUUUUUCUUUUAUUUUUACUGCCAUUGUUGAUGUGUUGUGGGACA`, “RBNS enrichment (R)” read 0.581.
`GCUUUCAAAUCAUUGGAAGGGGAAAAGGAUGUCUUAGGAUUAUUUUCUUUCUUGUAGUAGUUGAGACAGAGCUCUUAUUUACUGUAAUGCUAAAUGAAACAGUGGCUUAA` — result for “RBNS enrichment (R)”: 0.398.
`UCCUUGUAAGUUGGAAAGAAUGUUUAUUUAACAGAUCUUGUAUUACAUUUAUUUCCCCCUGAUGUGGAAAAUCUAAAAGCACAGAAUGAUGGGAACAAGAGUAUGAUGUG`: “RBNS enrichment (R)” 2.07.
Under “RBNS enrichment (R)”, `GAAGUCAACUCGGGGGACAUGCAAAAAUAACUAUAUAAGACAUUAAAAGAACAAAGAGUGAAAUAUUGUAAAUGCUAUUAUACUGUUAUCCAUAUUACGUUGUUUCUUAU` is recorded as 0.723.
Under “RBNS enrichment (R)”, `GUUUAUAUACAUUUGCCCUAACAUAGGAAGUAUUGUGUAGUUUCUCAUUGUCAUUUUAUCUGUAUCAAGUAUCUUUUUUUAAAUUGUUAAAUAAAGUCAGCUAGGACUGU` is recorded as 0.493.
`CCUGCCCCUGUGGGACUCAUCCUUGCCCAGGUGAGGGAAGGAGACAGGAUGAGGUCUCGACCCUGUCCCCUAGGGACUGUCCUAGCCAGGUCUCCUGGGAAAGGGAGAUG` — result for “RBNS enrichment (R)”: 0.467.

Mixed results
With `PhoQ, residues 284 288 289 292 302 303 SSTLSG` the fold induction was 9.36 (PhoP, residues 12 14 15 18 19 NQFFI (Escherichia coli, UniProt P23836); Sort-seq, measured: YFP reporter; E. coli; PhoQ-PhoP variant library, added: 10 µM Mg2+; reference: high Mg2+ state, higher = stronger signaling).

A few entries again (sample 1):
`GACGAACTGAGTATCGTGACGTGCTAG` gave a log fluorescence of 0.433 z-score.
The log fluorescence of `CCTAGTTTTACTTTCTATCTGTGCTAG` is reported as 5.38 z-score.
For `GACGATATGAGACTGGAGACGTGCTAG`, the log fluorescence was 0.374 z-score.
For `TTAGGTCGCGGTTTCGGTTAGTGCTAG`, the log fluorescence was 7.8 z-score.
With `GACGGACTGGGCTTTCGGGACGTGCTA` the log fluorescence was 1.22 z-score.
